Measured values pooled from the literature.
Lines come from different studies, so protocols differ. pIC50: −log10 of the molar value.
Chain of UniProt P52564 (whole entry, looked up): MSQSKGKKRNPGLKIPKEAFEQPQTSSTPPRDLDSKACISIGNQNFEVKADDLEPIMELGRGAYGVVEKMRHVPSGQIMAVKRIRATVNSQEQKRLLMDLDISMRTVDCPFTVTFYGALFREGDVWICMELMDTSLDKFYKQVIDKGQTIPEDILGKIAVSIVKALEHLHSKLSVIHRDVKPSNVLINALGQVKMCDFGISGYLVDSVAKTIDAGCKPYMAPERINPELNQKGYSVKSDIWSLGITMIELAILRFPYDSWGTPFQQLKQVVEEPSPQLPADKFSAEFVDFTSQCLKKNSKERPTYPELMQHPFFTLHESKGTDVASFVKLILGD

CC1(C)[C@H](NC(=O)/C(=N\OCc2c(Cl)cccc2Cl)c2nsc(N)n2)C(=O)N1OS(=O)(=O)O — MIC (Providencia rettgeri; agar dilution; ATCC 31052, susceptible): 0.5 µg/mL
Cc1c(CN(C)C(=O)/C=C/c2cnc3c(c2)CC(N)C(=O)N3)oc2ccccc12 (stereo not drawn) — MIC (Acinetobacter baumannii; broth microdilution; AR-0313): 32 µg/mL
CC1(C)[C@H](NC(=O)/C(=N\OCCN)c2csc(N)n2)C(=O)N1OS(=O)(=O)O — MIC (Providencia rettgeri; agar dilution; ATCC 31052, susceptible): ≤ 0.03 µg/mL
COC1C=COC2(C)Oc3c(C)c(O)c4c(c3C2=O)C2=NC3(CCN(CC(C)C)CC3)NC2=C(NC(=O)C(C)=CC=CC(C)C(O)C(C)C(O)C(C)C(OC(=O)Nc2cccnn2)C1C)C4=O (stereo not drawn) — MIC (Mycobacteroides abscessus; ATCC 19977; single-strain MIC): 90 µg/mL
C=CCOC(=O)[C@]12CS[C@H](c3ccccc3)N1C(=O)/C(=C(\O)C1CCCCC1)C2=O — MIC (Streptomyces; bacterial growth, broth dilution; Mueller-Hinton broth; 24 h, 35 °C): 3.91 µg/mL
CC1(C)[C@H](NC(=O)/C(=N\OC2(C(=O)O)CCCCC2)c2csc(N)n2)C(=O)N1OS(=O)(=O)O — MIC (Providencia rettgeri; agar dilution; ATCC 31052, susceptible): 0.25 µg/mL
Nc1ncc(-c2cc(-c3cnn(CC(F)(F)F)c3)ncc2F)nc1C(=O)NC1CNCC(F)C1 (stereo not drawn) — remaining binding (FRK; KINOMEscan; 1 µM; reference: DMSO control): 81%
CN1CCCNC(=O)c2cccc(c2)C(=O)NCCCN(C)CCCNc2cccc3c2C(=O)c2cccc(c2C3=O)NCCC1 — log2 fold change (SAS; RNA-Seq, refers to: JAGN1 mRNA; 1 µM, 6 h; reference: untreated cells): 0.442
Cc1ncsc1-c1ccc(C(C)NC(=O)C2CC(O)CN2C(=O)C(NC(=O)CCCCCCCCCCN2CCCC(Nc3ncc(Cl)c(Nc4ccccc4S(=O)(=O)C(C)C)n3)C2)C(C)(C)C)cc1 (stereo not drawn) — log2 fold change (22Rv1; RNA-seq, refers to: WNT5A mRNA; concentration not given; reference: DMSO): -1.69
N=C(N)NCCC[C@@H]1NC(=O)[C@H](CCCNC(=N)N)NC(=O)[C@@H](CCCNC(=N)N)NC(=O)[C@@H](CCCNC(=N)N)NC(=O)[C@@H](C(c2ccccc2)c2ccccc2)NC(=O)[C@@H](Cc2c[nH]c3ccccc23)NC(=O)[C@@H](C(c2ccccc2)c2ccccc2)NC1=O — MIC (Candida albicans; CA3): 32 µg/mL
COc1cc(C(=O)Nc2ccc(C(=O)O)c(O)c2OC)ccc1NC(=O)c1ccc(NC(=O)[C@H](Cc2c[nH]nn2)NC(=O)c2ccc(NC(=O)/C(C)=C/c3ccc(O)cc3)cc2)cc1 — MIC (Mycolicibacterium phlei; DSM 750): 2 µg/mL
O=C1C(=C(O)NC23CC4CC(CC(C4)C2)C3)C(=O)C2(C(=O)OCc3ccccc3[N+](=O)[O-])CSC(c3ccnc(Br)c3)N12 (stereo not drawn) — MIC (Streptomyces; bacterial growth, broth dilution; Mueller-Hinton broth; 24 h, 35 °C): 31.3 µg/mL
Cc1nn(-c2cccc(N)c2)c(=O)c2cnc(Nc3ccc(N4CCNCC4)cc3)nc12 — pIC50 (MAP2K6 (Homo sapiens, UniProt P52564); enzyme activity, inhibitor): < 5.00
COC1CN([C@H]2CC[C@H]([C@@]3(C)Oc4c(Cl)cc(C(=O)NCc5c(SC)cc(C)[nH]c5=O)c(C)c4O3)CC2)C1 — log2 fold change (RNA-seq, refers to: IGSF3 mouse homolog; mouse, HT-1376 xenograft, whole blood; dose not given; reference: vehicle): 1.47
C=CC(=O)Nc1cccc(Cn2ncc3cnc(Nc4cnn(CCOC)c4)nc32)c1 — percent of control (GRK7 human; binding, KINOMEscan; 100 nM; lower = stronger binding): 97%
O=C1C(=C(O)NC2CCCCC2)C(=O)C2(C(=O)OCc3ccccc3)CSC(c3ccccc3)N12 (stereo not drawn) — MIC (Streptomyces; bacterial growth, broth dilution; Mueller-Hinton broth; 24 h, 35 °C): 15.6 µg/mL
CN[C@H](CC(C)C)C(=O)N[C@H]1C(=O)N[C@@H](CC(N)=O)C(=O)N[C@H]2C(=O)N[C@H]3C(=O)N[C@H](C(=O)N[C@H](C(=O)O)c4cc(O)cc(O)c4-c4cc3ccc4O)[C@H](O)c3ccc(c(Cl)c3)Oc3cc2cc(c3O[C@@H]2O[C@H](CO)[C@@H](O)[C@H](O)[C@H]2O[C@H]2C[C@](C)(N)[C@H](O)[C@H](C)O2)Oc2ccc(cc2Cl)[C@H]1O — MIC (Gram-positive bacteria; seven strains): 0.5 µM
C=CCOC(=O)C12CSC(c3ccccc3)N1C(=O)C(=C(O)NC1CCCCC1)C2=O (stereo not drawn) — MIC (Streptomyces; bacterial growth, broth dilution; Mueller-Hinton broth; 24 h, 35 °C): 15.6 µg/mL
CNS(=O)(=O)Nc1nccc(Cc2c(C)c3ccc(Oc4ncccc4F)cc3oc2=O)c1F — pIC50 (Loucy; cell viability, CellTiter-Glo; 7 days): < 6.00
CCN(CC)CC(=O)Nc1cccc(-n2cc(-c3ccc4ccc(-c5cn(-c6cccc(NC(=O)CN(CC)CC)c6)nn5)cc4c3)nn2)c1 — fold regulation (RCC4; PCR angiogenesis array, refers to: S1PR1; 5 x IC50, 2 h, normoxia; reference: untreated): 2.4
C#CCO/N=C(\C(=O)N[C@@H]1C(=O)N(OS(=O)(=O)O)C1(C)C)c1nsc(N)n1 — MIC (Providencia rettgeri; agar dilution; ATCC 31052, susceptible): ≤ 0.03 µg/mL
CC1C=CC=CC(C)C2C=CC3CC(C)(O)C(Cl)C(C)C3C2C(=O)C(Cl)(Cl)C(=O)C(C)C(=O)O1 (stereo not drawn) — MIC (Staphylococcus aureus; MRSA clinical isolate; resistant: OXA,GEN): 0.2 µg/mL
CC1(C)C(NC(=O)C(=NOC2(C(=O)O)CC2)c2csc(N)n2)C(=O)N1OS(=O)(=O)O (stereo not drawn) — MIC (Providencia rettgeri; agar dilution; ATCC 31052, susceptible): ≤ 0.03 µg/mL
COc1c(NC(=O)c2ccc(NC(=O)[C@H](Cc3c[nH]nn3)NC(=O)c3ccc(NC(=O)/C(C)=C/c4ccc(O)cc4)cc3)cc2)ccc(C(=O)Nc2ccc(C(=O)O)c(O)c2)c1O — MIC (Mycolicibacterium phlei; DSM 750): 1 µg/mL
